# Assay results collected from several papers.
# Parts stem from different laboratories: compare values within a part only. Values joined by “and” are separate records of one study, mostly repeats; a detail may differ.
# Chain of UniProt P24723 (whole entry, looked up): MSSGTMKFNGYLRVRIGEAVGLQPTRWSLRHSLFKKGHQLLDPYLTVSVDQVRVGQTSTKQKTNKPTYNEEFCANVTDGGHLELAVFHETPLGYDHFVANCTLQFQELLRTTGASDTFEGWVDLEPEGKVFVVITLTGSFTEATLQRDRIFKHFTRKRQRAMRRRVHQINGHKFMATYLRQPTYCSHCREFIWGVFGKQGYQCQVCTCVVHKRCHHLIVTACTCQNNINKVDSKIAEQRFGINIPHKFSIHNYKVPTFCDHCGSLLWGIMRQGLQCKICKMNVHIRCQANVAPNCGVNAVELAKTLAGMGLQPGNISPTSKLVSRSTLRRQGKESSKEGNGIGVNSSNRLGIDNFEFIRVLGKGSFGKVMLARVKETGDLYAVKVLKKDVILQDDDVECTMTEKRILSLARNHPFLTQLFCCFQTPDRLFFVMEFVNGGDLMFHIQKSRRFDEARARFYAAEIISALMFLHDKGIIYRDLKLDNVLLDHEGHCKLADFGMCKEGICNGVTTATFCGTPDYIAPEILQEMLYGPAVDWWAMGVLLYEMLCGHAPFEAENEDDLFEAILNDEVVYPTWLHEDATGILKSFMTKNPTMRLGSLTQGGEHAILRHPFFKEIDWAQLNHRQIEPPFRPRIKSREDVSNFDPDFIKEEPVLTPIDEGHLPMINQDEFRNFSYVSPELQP
# Chain of UniProt P00519 (whole entry, unmodified, looked up): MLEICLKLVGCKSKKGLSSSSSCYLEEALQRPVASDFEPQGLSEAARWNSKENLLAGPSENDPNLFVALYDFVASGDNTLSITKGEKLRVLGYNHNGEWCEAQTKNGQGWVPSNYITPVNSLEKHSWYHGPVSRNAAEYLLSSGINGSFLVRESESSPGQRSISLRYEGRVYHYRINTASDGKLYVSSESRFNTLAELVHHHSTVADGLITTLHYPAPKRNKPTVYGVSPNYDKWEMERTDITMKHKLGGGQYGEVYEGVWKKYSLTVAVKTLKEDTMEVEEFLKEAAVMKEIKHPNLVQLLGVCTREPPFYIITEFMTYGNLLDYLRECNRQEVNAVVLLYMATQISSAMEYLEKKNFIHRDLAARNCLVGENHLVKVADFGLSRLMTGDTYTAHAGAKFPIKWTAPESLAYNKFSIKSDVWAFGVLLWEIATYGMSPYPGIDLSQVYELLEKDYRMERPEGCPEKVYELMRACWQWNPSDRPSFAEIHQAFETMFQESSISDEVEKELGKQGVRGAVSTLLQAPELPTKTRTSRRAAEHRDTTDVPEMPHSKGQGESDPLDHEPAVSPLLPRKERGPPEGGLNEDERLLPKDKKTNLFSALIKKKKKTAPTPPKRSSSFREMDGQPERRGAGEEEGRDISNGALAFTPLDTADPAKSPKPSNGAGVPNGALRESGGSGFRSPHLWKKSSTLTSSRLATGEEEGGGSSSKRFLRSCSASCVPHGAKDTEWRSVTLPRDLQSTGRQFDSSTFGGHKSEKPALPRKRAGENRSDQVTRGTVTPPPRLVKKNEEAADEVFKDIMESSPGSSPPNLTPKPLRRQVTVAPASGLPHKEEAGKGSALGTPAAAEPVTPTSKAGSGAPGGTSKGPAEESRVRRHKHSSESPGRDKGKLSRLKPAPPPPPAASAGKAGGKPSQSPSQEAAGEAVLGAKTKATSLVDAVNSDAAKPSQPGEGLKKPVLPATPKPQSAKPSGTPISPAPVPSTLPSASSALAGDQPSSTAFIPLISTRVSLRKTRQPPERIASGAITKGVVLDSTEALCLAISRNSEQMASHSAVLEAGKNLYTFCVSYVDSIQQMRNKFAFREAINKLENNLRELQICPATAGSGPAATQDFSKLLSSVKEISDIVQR
# Chain of UniProt Q86UE8 (whole entry, looked up): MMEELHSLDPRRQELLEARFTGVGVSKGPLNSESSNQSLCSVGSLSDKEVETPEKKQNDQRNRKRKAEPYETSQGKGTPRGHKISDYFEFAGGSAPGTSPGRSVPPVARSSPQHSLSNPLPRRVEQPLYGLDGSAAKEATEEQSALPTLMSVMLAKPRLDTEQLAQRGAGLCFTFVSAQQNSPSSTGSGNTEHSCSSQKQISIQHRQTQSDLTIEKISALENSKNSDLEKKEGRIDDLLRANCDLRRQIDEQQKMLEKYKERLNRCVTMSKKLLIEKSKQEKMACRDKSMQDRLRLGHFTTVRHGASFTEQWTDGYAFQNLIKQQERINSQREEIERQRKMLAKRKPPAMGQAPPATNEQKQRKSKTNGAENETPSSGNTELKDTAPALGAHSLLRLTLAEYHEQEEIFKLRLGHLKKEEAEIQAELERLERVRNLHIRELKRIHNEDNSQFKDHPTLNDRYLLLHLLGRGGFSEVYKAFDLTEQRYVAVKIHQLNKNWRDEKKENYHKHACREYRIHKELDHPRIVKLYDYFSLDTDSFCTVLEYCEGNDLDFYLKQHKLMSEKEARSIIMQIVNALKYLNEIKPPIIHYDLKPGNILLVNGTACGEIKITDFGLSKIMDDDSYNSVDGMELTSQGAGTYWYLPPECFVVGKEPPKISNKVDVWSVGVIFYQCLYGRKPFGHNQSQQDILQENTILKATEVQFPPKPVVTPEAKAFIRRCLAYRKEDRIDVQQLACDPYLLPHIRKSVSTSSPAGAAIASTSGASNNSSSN
# Chain of UniProt Q9Y5S2 (whole entry, looked up): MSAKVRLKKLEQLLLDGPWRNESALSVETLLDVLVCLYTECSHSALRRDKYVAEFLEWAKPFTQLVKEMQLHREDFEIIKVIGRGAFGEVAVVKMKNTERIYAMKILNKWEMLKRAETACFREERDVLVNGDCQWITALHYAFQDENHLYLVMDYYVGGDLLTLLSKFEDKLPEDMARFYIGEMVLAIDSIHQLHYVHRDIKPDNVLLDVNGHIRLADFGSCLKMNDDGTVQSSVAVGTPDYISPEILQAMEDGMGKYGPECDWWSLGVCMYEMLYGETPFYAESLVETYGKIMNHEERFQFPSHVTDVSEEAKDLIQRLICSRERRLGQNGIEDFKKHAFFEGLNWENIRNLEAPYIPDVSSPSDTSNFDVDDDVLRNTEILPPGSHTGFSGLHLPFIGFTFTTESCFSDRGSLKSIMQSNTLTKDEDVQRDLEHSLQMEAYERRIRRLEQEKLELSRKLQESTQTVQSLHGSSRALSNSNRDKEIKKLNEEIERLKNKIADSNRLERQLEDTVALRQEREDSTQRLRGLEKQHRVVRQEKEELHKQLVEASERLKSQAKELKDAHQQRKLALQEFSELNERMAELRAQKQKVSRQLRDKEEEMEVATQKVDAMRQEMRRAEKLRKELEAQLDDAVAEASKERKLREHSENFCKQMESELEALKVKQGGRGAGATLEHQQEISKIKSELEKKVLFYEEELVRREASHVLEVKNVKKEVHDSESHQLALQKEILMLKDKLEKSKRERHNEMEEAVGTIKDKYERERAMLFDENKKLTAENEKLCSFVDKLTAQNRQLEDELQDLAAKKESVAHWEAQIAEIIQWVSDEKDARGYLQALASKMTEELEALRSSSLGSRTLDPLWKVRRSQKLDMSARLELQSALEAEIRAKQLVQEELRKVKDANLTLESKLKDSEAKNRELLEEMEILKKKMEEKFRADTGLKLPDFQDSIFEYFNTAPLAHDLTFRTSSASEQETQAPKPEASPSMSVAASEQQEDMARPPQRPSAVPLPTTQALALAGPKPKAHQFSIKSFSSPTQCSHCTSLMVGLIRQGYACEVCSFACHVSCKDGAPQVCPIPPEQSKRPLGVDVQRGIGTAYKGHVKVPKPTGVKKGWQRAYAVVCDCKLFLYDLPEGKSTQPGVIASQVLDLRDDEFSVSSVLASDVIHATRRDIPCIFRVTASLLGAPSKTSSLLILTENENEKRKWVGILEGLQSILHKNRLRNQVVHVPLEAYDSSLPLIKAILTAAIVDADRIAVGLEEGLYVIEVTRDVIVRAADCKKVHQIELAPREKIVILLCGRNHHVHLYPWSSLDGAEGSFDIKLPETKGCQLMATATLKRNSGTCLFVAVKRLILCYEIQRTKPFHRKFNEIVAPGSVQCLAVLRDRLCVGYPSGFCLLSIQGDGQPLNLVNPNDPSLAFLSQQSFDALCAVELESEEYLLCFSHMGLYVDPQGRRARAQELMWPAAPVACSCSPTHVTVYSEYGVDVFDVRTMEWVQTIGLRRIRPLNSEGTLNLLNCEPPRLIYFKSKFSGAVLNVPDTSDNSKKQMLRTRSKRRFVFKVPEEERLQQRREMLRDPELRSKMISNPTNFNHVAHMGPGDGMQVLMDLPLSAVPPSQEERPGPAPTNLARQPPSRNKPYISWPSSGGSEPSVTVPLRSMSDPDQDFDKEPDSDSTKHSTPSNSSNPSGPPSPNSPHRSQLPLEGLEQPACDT
# Chain of UniProt Q9BXA7 (whole entry, looked up): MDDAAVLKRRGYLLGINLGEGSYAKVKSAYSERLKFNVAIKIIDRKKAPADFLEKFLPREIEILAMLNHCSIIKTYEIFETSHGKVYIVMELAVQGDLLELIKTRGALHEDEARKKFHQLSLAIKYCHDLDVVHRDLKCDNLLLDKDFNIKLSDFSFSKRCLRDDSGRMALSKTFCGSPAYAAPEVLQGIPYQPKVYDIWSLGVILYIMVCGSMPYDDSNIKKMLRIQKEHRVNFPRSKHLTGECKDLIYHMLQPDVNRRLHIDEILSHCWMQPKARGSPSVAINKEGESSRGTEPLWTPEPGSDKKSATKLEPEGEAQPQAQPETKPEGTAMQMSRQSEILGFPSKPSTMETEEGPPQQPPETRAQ

# Block 1 — effect on: enzyme activity; mode: inhibitor; concentration: 0.5 µM; relative to: control
# Target: Serine/threonine-protein kinase 25 (STK25, Homo sapiens, UniProt O00506)
# Chain of UniProt O00506 (whole entry, looked up): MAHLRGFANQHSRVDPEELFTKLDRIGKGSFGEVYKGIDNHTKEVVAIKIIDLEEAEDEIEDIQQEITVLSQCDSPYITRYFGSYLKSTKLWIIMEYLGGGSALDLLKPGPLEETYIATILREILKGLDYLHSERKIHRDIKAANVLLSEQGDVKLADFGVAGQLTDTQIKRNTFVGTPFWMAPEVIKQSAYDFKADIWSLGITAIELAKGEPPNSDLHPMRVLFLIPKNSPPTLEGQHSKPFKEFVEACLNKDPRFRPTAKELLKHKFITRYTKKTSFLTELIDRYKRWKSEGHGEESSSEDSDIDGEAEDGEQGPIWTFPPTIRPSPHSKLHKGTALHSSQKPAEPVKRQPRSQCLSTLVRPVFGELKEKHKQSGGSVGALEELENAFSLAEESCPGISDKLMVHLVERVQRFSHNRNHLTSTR
SMILES,remaining activity [%]
O=c1c2ccccc2[nH]c(=S)n1CCN1CCC(=C(c2ccc(F)cc2)c2ccc(F)cc2)CC1,96.6
O=C1NC(=O)C(c2cn(CCCn3ccnc3)c3ccccc23)=C1Nc1ccccc1,63.1
Cc1nc(-c2ccccc2)c(-c2ccncc2)o1,104
O=S(=O)(c1cccc2cnccc12)N1CCCNCC1,84.8
O=C(CCCc1ccc(-c2ccccc2F)cc1)Nc1ccc(O)cc1,105
O=C1NC(=O)C(c2cn(CCCO)c3ncccc23)=C1c1cnccn1,78.9
CC(C)[C@H](CO)Nc1nc(Nc2cc(N)cc(Cl)c2)c2ncn(C(C)C)c2n1,81.8
CNC(=O)c1cc(Oc2ccc(NC(=O)Nc3ccc(Cl)c(C(F)(F)F)c3)cc2)ccn1,104
COc1ccc(C(=O)Nc2sc3c(c2C(N)=O)CCCC3)cc1OC,91.7
COc1cc2ncnc(Nc3ccc(Oc4ccccc4)cc3)c2cc1OC,109
Cc1cccc(-c2[nH]c(C(C)(C)C)nc2-c2ccc3c(c2)OCO3)n1,104
OCC(O)CCON=C1C(c2c(O)[nH]c3ccccc23)=Nc2ccccc21 (centres unmarked),74
CN(C)c1ccc(C=C2C(=O)Nc3ccccc32)cc1,90.2
O=C(Nc1cccc(Nc2cc(Nc3cccc(C(F)(F)F)c3)ncn2)c1)C1CC1,97.4
Nc1[nH]nc2nc3ccccc3nc12,99.9

# Block 2 — cell line: mouse MPNST tumor cells; technique: high-content nuclear imaging; measured: cell number; concentration: 10 µM; time: 12 h; setting: mean of 2 replicates; relative to: plate mean; reading: higher = more cells
Structure (SMILES),nuclei count
CCCCNc1ccc(C(=O)OCCOCCOCCOCCOCCOCCOCCOCCOCCOC)cc1,0.923 z-score
N[C@H](C(=O)O)[C@H](OCc1ccccc1)C(=O)O (racemic),1.36 z-score
NC(N)=NCCC[C@H](NC(=O)c1sccc1NS(=O)(=O)c1cccc2nsnc12)C(=O)O,1.48 z-score
Cc1ccc(NC(=O)C(C)C)cc1C1CCN(Cc2ccc(Oc3ccc(F)c(F)c3)cc2)CC1,-6.16 z-score
O=C(NNc1nc2cc(F)ccc2n2cccc12)c1cnccn1,-2.79 z-score
COc1ccc(CCc2nc3cc(-c4c(C)noc4C)ccc3n2C[C@H](C)N2CCOCC2)cc1Cl,0.0867 z-score and 1.59 z-score
O=C1c2c(O)ccc(O)c2C(=O)c2c(NCCNCCO)ccc(NCCNCCO)c21,-4.89 z-score and -4.94 z-score

# Block 3 — effect on: enzyme activity; mode: inhibitor; concentration: 1 µM
# Structure (SMILES): CC#CC(=O)N1CCC[C@H]1c1nc(-c2ccc(C(=O)Nc3ccccn3)cc2)c2c(N)nccn12
target,inhibition
"YES1 (Homo sapiens, UniProt P07947)",41%
"EPHA4 (Homo sapiens, UniProt P54764)",0%
"PHKG1 (Homo sapiens, UniProt Q16816)",0%
"CDC42BPB (Homo sapiens, UniProt Q9Y5S2)",0%
"PIK3C2G (Homo sapiens, UniProt O75747)",10%
"FLT3 (Homo sapiens, UniProt P36888, K663Q)",4%
"PIP4K2C (Homo sapiens, UniProt Q8TBX8)",0%
"TSSK1B (Homo sapiens, UniProt Q9BXA7)",0%

# Block 4 — concentration: 1 µM
# Structure (SMILES): CO[C@@H](C)c1c(Nc2ccc([C@@H](N(C)C(=O)C3CCS(=O)(=O)CC3)C(F)(F)F)cc2)cnc2cc(Cl)nn12
target,assay,remaining binding [%]
"MAP2K4 (Homo sapiens, UniProt P45985)","cell-free assay, competition with immobilised ligand",100
"IGF1R (Homo sapiens, UniProt P08069)","cell-free assay, competition with immobilised ligand",97
"SIK3 (Homo sapiens, UniProt Q9Y2K2)","cell-free assay, competition with immobilised ligand",100
"Tyrosine-protein kinase ABL1, phosphorylated (ABL1, Homo sapiens, UniProt P00519, F317I)",binding,100
"TYRO3 (Homo sapiens, UniProt Q06418)","cell-free assay, competition with immobilised ligand",99
"TLK2 (Homo sapiens, UniProt Q86UE8)","cell-free assay, competition with immobilised ligand",100
"PRKCH (Homo sapiens, UniProt P24723)","cell-free assay, competition with immobilised ligand",78
"FLT4 (Homo sapiens, UniProt P35916)","cell-free assay, competition with immobilised ligand",84

# A few entries again (block 2):
Structure (SMILES),nuclei count
O=C(NNc1nc2cc(F)ccc2n2cccc12)c1cnccn1,-2.79 z-score
N[C@H](C(=O)O)[C@H](OCc1ccccc1)C(=O)O (racemic),1.36 z-score
COc1ccc(CCc2nc3cc(-c4c(C)noc4C)ccc3n2C[C@H](C)N2CCOCC2)cc1Cl,0.0867 z-score and 1.59 z-score
Cc1ccc(NC(=O)C(C)C)cc1C1CCN(Cc2ccc(Oc3ccc(F)c(F)c3)cc2)CC1,-6.16 z-score
NC(N)=NCCC[C@H](NC(=O)c1sccc1NS(=O)(=O)c1cccc2nsnc12)C(=O)O,1.48 z-score
